Experimental data of several laboratories.
Each numbered part is a random draw from the data of one study; scales do not carry over between parts.
Chain of UniProt P38919 (whole entry, looked up): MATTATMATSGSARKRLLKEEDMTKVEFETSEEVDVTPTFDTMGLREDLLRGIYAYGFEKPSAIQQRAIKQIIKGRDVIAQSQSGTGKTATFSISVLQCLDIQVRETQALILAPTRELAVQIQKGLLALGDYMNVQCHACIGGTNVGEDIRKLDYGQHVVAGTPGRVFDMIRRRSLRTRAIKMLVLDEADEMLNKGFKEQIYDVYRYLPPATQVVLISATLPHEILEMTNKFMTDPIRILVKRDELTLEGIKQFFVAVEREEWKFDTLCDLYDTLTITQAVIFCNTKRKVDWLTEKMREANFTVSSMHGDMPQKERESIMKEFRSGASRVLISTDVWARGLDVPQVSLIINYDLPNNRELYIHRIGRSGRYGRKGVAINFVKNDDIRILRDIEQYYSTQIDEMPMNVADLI

Series 1
Structure (SMILES): COc1cc(C(=O)N2CCC(N3CCN(C)CC3)CC2)ccc1Nc1ncc2c(n1)N(C)c1ccccc1C(=O)N2C
Method: KINOMEscan
Concentration: 10 µM
Reference: DMSO control
Direction: lower = stronger binding
It gave 100% for binding (RIOK2).
The binding was 100% (HCK).
It gave 96% for binding (LKB1).
For TAK1: binding read 98%.
For CSNK2A2: binding read 93%.
It gave 100% for binding (ACVR2A).
It gave 88% for binding (OSR1).
It gave 97% for binding (BLK).
For MARK1: binding read 87%.
The binding was 100% (CHEK1).
For CDK5: binding read 81%.
MST2 — binding: 71%.

Series 2
Target: Protein-tyrosine kinase 6 (PTK6, Homo sapiens, UniProt Q13882)
Chain of UniProt Q13882 (whole entry, looked up): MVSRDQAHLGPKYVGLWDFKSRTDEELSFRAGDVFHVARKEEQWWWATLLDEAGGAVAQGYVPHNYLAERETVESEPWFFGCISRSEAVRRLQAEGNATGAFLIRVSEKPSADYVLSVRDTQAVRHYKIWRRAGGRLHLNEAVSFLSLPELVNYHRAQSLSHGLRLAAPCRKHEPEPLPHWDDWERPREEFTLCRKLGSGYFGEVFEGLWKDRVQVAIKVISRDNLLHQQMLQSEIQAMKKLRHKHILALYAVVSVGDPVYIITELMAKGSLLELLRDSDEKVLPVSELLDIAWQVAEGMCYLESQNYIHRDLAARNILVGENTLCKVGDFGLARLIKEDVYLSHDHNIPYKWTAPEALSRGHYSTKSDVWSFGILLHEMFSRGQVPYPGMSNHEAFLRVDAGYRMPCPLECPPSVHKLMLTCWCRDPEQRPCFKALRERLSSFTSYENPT
Effect on: enzyme activity
Mode: inhibitor
Concentration: 0.5 µM
Reference: control
`COc1cc2ncc(-c3ccccc3)nc2cc1OC` gave a remaining activity of 80.8%.
With `Cc1ccc(NC(=O)c2ccc(CN3CCN(C)CC3)cc2)cc1Nc1nccc(-c2cccnc2)n1` the remaining activity was 93.6%.
The remaining activity of `CCOc1cc2ncnc(Nc3cccc(Br)c3)c2cc1OCC` is reported as 27.7%.
`CN(C)CCCn1cc(C2=C(c3c[nH]c4ccccc34)C(=O)NC2=O)c2ccccc21` gave a remaining activity of 95.3%.
With `COc1cc2ncnc(Nc3ccc(OCc4ccccc4)cc3)c2cc1OC` the remaining activity was 37.9%.
The remaining activity of `CCC(=O)Nc1ccc2ncnc(Nc3cccc(Br)c3)c2c1` is reported as 57.2%.
The remaining activity of `O=C1NC(=O)/C(=C/c2ccc3nccnc3c2)S1` is reported as 95.1%.
For `Nc1[nH]nc2nnc(-c3c(-c4ccccc4)nn4ccccc34)cc12`, the remaining activity was 90.8%.
`COc1cc2ncnc(N3CCN(C(=O)Nc4ccc(Oc5ccccc5)cc4)CC3)c2cc1OC` gave a remaining activity of 95.2%.
The remaining activity of `Cn1cc(/C=C2\C(=O)Nc3ccc(S(N)(=O)=O)cc32)c2ccccc21` is reported as 80.2%.

Series 3
Target: Beta-3 adrenergic receptor (ADRB3, Homo sapiens, UniProt P13945)
Chain of UniProt P13945 (whole entry, looked up): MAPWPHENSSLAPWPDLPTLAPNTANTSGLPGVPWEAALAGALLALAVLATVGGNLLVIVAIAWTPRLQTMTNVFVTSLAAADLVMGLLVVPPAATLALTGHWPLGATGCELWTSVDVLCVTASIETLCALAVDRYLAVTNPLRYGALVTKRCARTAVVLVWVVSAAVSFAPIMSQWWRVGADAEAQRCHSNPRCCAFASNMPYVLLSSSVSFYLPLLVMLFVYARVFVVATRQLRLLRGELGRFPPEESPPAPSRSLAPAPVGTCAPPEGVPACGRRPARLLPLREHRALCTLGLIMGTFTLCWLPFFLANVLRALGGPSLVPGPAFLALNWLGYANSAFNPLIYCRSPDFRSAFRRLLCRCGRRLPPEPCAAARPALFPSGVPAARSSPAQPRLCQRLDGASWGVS
Effect on: binding
Method: radioligand binding
Concentration: 10 µM
With `O=C(Nc1cccnn1)N1CC(CC=Cc2cncc(Oc3ccc(C(F)(F)F)cn3)n2)C1` the inhibition was -10.1%.
With `Cc1c(NC(=O)c2cc(C(N)=O)nc3cc(F)ccc23)c(C(F)(F)F)nn1Cc1ccc(C(C)(C)C)cc1` the inhibition was -10.9%.
The inhibition of `CC1=C(C#N)[C@@H](c2ccc3[nH]nc(C)c3c2)C(C#N)=C(c2ccc(Cl)cc2)N1` is reported as 24.3%.
`Cc1c[nH]c2nccc(Oc3c(F)cc(Nc4cc(Cl)nc(N)n4)cc3F)c12` gave an inhibition of 22%.
For `CN1CCN(C(=O)C(C)(C)c2ccc(C(=O)Nc3cn4cc(-c5ccncc5)ccc4n3)cc2)CC1`, the inhibition was -11.5%.
With `O=C([C@H]1C[C@H](O)CN1c1ccc(Cl)cc1)N1CC2COCC(C1)N2Cc1ccc(Cl)cc1` the inhibition was -9.84%.
`C[C@@H]1CN(c2cc(-c3nn(C)c4ccc(OC5(C)CC5)cc34)ncn2)C[C@H](C)O1` has an inhibition of 11.8%.
The inhibition of `Cc1cc(-n2nc(Cc3cc(F)cc(C(F)(F)F)c3)nc2C)ccc1C(N)=O` is reported as 4.48%.
With `CNC(=O)c1ccc(Nc2ncc(C(F)(F)F)c(NCc3nccnc3N(C)S(C)(=O)=O)n2)cc1` the inhibition was 4.63%.
For `CN([C@@H]1CCc2c(CC(=O)O)c3cc(S(C)(=O)=O)ccc3n2C1)S(=O)(=O)c1ccc(F)cc1`, the inhibition was 0.851%.
`Cc1cc(C)c(-n2ccn3nc(-c4cccnc4)cc23)cc1NC(=O)c1cc(C#N)cc(S(F)(F)(F)(F)F)c1` gave an inhibition of 52.3%.
For `C[C@H](NC(=O)c1cnc2n1[C@](C)(Cc1ccc(C#N)cc1)C(=O)N2c1cc(Cl)c(F)c(Cl)c1)C(=O)NC1(c2ccccn2)CC1`, the inhibition was 12.4%.
For `Nc1c(C(=O)NCc2ccc(C(=O)NCCCC3CCCCC3)cc2)cnn1-c1ccccc1`, the inhibition was 21.8%.
With `O=C(Nc1ccc(-n2nc(-c3cccnc3)cc2C(F)(F)F)cn1)c1ccc(-c2ccccc2)c(F)c1` the inhibition was -0.78%.
`CN1C(=O)[C@@H](N2CCc3cn(Cc4ccccc4)nc3C2=O)COc2ccccc21` gave an inhibition of 9.8%.
`CN(C)C(=O)Cn1cc(-c2nc([C@@](C)(c3ccc(-c4cnc(N)nc4)cc3)C3CC3)no2)cn1` gave an inhibition of 9.54%.
The inhibition of `Cc1c(N2CCCC2)nc2ccc(Br)cc2c1C(=O)NC[C@H](CCC(=O)O)c1ccccc1Cl` is reported as 21.6%.
With `O=C(O)c1cc(-c2ccc(C3CCNCC3)cc2)c2ccc(-c3ccc(C(F)(F)F)cc3)cc2c1` the inhibition was 65.2%.
With `O=C(Nc1cnc(Oc2ccc(F)cc2)nc1)N1CCc2ncccc2[C@@H]1c1ccc(F)cc1` the inhibition was -13.7%.
For `CS(=O)(=O)NCC[C@H](NC(=O)c1cncc2c1cnn2-c1ccc(F)cc1)c1ccnc(S(C)(=O)=O)c1`, the inhibition was -5.01%.
`COc1cc(-c2cn(C3CCc4ccccc4N(CC(F)(F)F)C3=O)nn2)ccc1-n1ccc(C)n1` (centres unmarked) has an inhibition of -11.6%.

Mixed results
`COc1ccc([C@]23[C@H](c4ccccc4)C[C@@H](O)[C@@]2(O)c2c(F)cccc2N3C)cc1` — result for “fluorescence polarization change”: 6 mP (Eukaryotic initiation factor 4A-III (Homo sapiens, UniProt P38919); RNA clamping, fluorescence polarization; concentration not given, mean of two replicates, together with: FAM-labelled poly r(AG)8 RNA).
